Experimental data gathered from unrelated publications.
Each numbered part is a random draw from the data of one study; scales do not carry over between parts. Changes are numbered by the printed parent chain.

Set 1 — technique: DHFR PCA, deep sequencing; matrix: yeast; together with: (+)-ABA 710 µM; baseline: wild-type fitted maximum; direction: higher = stronger binding
Target: ABI1, truncated, D143A, DHFR fusion (Arabidopsis thaliana)
Notes: methotrexate growth selection, single substitutions
Parent: PYL1, truncated, DHFR fusion (Arabidopsis thaliana); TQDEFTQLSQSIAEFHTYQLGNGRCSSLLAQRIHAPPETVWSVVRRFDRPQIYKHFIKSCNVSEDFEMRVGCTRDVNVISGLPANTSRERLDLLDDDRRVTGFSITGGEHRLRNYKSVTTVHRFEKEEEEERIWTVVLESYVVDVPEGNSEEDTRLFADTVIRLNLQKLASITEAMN; partner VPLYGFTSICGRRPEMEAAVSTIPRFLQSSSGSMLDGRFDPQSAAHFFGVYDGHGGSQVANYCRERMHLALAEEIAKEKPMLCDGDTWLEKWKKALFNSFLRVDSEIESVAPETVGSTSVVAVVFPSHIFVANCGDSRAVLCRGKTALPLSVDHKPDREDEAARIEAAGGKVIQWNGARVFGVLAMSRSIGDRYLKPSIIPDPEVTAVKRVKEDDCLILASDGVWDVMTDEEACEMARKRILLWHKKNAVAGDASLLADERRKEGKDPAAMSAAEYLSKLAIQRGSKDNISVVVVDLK
`V143D` — result for “relative binding score”: 7.18%.
`N165G` — result for “relative binding score”: 47.5%.
`G107M`: “relative binding score” 81.9%.
`V40H` — result for “relative binding score”: -1.96%.
`G23S`: “relative binding score” 98.9%.
Under “relative binding score”, `I172E` is recorded as 92.3%.
Under “relative binding score”, `A30I` is recorded as 98.3%.

Set 2 — target: CCNB1, cyclin fold, Cln2 fusion (human); technique: yeast growth competition, sequencing; matrix: yeast; notes: weak parent motif; baseline: not given; direction: higher = stronger binding
Parent: USP37 docking peptide (human); PSAKRSLGFLPQP
`ASAKRSLGFLPQP [P1A]` — result for “normalised enrichment score”: 0.159.
`PSAKRSAGFLPQP [L7A]`: “normalised enrichment score” 0.00264.
Under “normalised enrichment score”, `PSAARSLGFLPQP [K4A]` is recorded as 0.215.
`PSAKRSLAFLPQP [G8A]` — result for “normalised enrichment score”: -0.0913.
`PSAKRALGFLPQP [S6A]` — result for “normalised enrichment score”: 0.351.
`PSAKASLGFLPQP [R5A]` — result for “normalised enrichment score”: 0.151.

Set 3 — technique: RNA Bind-n-Seq; molecule type: RNA; matrix: in vitro; concentration: 365 nM; baseline: no-protein control; direction: higher = stronger binding
Target: RNA binding protein fox-1 homolog 2, RRM domain, GST-SBP tag (RBFOX2, Homo sapiens, UniProt O43251-10, residues 100-194)
Notes: natural RNA segment, single round, ends assumed
Construct (chain): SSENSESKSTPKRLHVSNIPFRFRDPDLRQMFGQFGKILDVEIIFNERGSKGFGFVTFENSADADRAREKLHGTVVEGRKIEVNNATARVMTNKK
`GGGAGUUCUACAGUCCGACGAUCGUACCCAGAUGCCUACAACCAUCCCUGCCACAUACAGGUGCUCAAUAAACACUUGUAGAGCAGAUGGACGAGCUCGCUGUGCUGGUAACAGAUGGUGGUCUGUUCUCAGGUGGAAUUCUCGGGUGCCAA` — result for “RBNS enrichment (R)”: 0.365.
`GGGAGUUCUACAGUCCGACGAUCCGUCAUGUUUAGAGCUGAAGGAGUCUUCAUAGCCCAGGCUGUCCUGGGUAUUGCAGGAUGCUGAUUGAACAGCACCUGUGACCUUUCCUGCUCCAUGCCACUAGCAACCUUGGAAUUCUCGGGUGCCAA` — result for “RBNS enrichment (R)”: 0.229.
Under “RBNS enrichment (R)”, `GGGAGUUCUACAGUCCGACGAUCACUGUAUGUUUUGCAUUCCUAGAAGCAGGUUAACUGUGUUUUUAAAUUGUUAUAACCACACCUUUUUGAAAUCUGCCCUACAAAAUUUGUUUGGCUUAAACGUCAAAGCCUGGAAUUCUCGGGUGCCAA` is recorded as 0.42.
Under “RBNS enrichment (R)”, `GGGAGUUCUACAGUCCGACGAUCUGUGUGGGCCAUUGACUGCCUUGACCAGUAGAAGGGAUAACUAUUACACAGAUAGGCAGGCAGGGUGGCAGUCACCUCCCCUGUCCACGUGGAUCCAUCCCUGCCAUUGUUGGAAUUCUCGGGUGCCAA` is recorded as 0.2.
For `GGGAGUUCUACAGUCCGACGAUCCAGCCUUUAAGCACCCAUCGAGCACGGGCGGGAGCAGGGCUGUGGCCCAGCGCCGCCUUUUCACAUUUUUUGAGCCAUGGACAUGGGUUGUAAAAAUUUGUGGGGAGUAGUGGAAUUCUCGGGUGCCAA`, “RBNS enrichment (R)” read 0.296.
`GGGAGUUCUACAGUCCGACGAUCUAAUUUUCCUGUCUCUUUUUUUUGUAAAUUUUAUGUACAGAUUUGAUUUUUCAUAGUUUUAACUAGAUUUCCAAGAUAUUUUGUGCAUUUGUUUCAACUGAAUUUUGGUGUGGAAUUCUCGGGUGCCAA`: “RBNS enrichment (R)” 0.649.
`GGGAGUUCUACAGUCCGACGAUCAUAGCUUCUUAUUAAAAAUUUAAAAAAAGCGUUGAGGAGGAAUCCUUUGGUUAUUCAUACGGAAUUGAUGAUGGAAAAGCAACUGGUUGUCUUCUAAUUGUCUUUGUCUAUGGAAUUCUCGGGUGCCAA`: “RBNS enrichment (R)” 0.448.
Under “RBNS enrichment (R)”, `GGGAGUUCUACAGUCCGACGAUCGGGUUAAGAGAACCAUUUAAAGUAUUUUGUUCAUUAAAUGCCUCUUUCCAAAAAUGGAAGAUCCAAAAAUGGGGAUGUUUUAUGUACCCGGGUUAUUUUGUAUGAAUUCAUGGAAUUCUCGGGUGCCAA` is recorded as 0.916.
Under “RBNS enrichment (R)”, `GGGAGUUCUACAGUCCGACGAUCAUAGUGAUUAUUUGUGGAAUUGUUGCACAUGCUCCUCAAUUGAAGGGGUUUUUUCCCUACUCAAGCAUUCGGAGACACUUUCUGUAAAUGUUAACCUUUAUGUCAGCCAUUGGAAUUCUCGGGUGCCAA` is recorded as 0.348.
`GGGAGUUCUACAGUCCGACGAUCAUUUGGAAAGUUGCAAAGAAGGUAGAUUUGGGGGCAGGAAAAACAACCCUUUUCACAGUGUACUGUGUUUGGUUGGUGUAAAACUGAUGCAGAUUUUUCUGAAAUGAGAUUGGAAUUCUCGGGUGCCAA`: “RBNS enrichment (R)” 0.678.
`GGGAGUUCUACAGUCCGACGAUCAUAAUAUUGCUUUCAAAAAGAAAUGGUAGACAAAACUAUAAUCCAGCAUCUUUUAUUGCAUUGGAAAGACUGGCAAAGUCUUUUGGAUGGGUUGGGAGAUGUGGCUGGAAUGGAAUUCUCGGGUGCCAA`: “RBNS enrichment (R)” 0.364.
`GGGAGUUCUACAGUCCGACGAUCGCCUUGCUUUGCAAGGAUGGUAAAGAGAAAGCAGACCAGCCAGAUGCAGUCAGUGGUGUAUGCUUGUAAUCCCAGCCCUGGGGAGGCAGAGAAAAAUACCUAAGGCUCAGUGGAAUUCUCGGGUGCCAA` — result for “RBNS enrichment (R)”: 0.516.

Single results of other studies
`PhoQ, residues 284 288 289 292 302 303 QWGLFV` gave a fold induction of 5.75 (PhoP, residues 12 14 15 18 19 LHHSG (Escherichia coli, UniProt P23836); Sort-seq, item: YFP reporter; E. coli; PhoQ-PhoP variant library, together with: 10 µM Mg2+; baseline: high Mg2+ state, higher = stronger signaling).

Repeated from above (set 3):
`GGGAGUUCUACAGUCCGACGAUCCGUCAUGUUUAGAGCUGAAGGAGUCUUCAUAGCCCAGGCUGUCCUGGGUAUUGCAGGAUGCUGAUUGAACAGCACCUGUGACCUUUCCUGCUCCAUGCCACUAGCAACCUUGGAAUUCUCGGGUGCCAA` — result for “RBNS enrichment (R)”: 0.229.
Under “RBNS enrichment (R)”, `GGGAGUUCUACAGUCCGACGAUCACUGUAUGUUUUGCAUUCCUAGAAGCAGGUUAACUGUGUUUUUAAAUUGUUAUAACCACACCUUUUUGAAAUCUGCCCUACAAAAUUUGUUUGGCUUAAACGUCAAAGCCUGGAAUUCUCGGGUGCCAA` is recorded as 0.42.
